Measurements pooled from the literature.
Numbered parts are unrelated; each lists some results of a single study. Several values in a cell are separate wells, animals, samples, runs or records.
Sequence of UniProt P51812 (whole entry, looked up): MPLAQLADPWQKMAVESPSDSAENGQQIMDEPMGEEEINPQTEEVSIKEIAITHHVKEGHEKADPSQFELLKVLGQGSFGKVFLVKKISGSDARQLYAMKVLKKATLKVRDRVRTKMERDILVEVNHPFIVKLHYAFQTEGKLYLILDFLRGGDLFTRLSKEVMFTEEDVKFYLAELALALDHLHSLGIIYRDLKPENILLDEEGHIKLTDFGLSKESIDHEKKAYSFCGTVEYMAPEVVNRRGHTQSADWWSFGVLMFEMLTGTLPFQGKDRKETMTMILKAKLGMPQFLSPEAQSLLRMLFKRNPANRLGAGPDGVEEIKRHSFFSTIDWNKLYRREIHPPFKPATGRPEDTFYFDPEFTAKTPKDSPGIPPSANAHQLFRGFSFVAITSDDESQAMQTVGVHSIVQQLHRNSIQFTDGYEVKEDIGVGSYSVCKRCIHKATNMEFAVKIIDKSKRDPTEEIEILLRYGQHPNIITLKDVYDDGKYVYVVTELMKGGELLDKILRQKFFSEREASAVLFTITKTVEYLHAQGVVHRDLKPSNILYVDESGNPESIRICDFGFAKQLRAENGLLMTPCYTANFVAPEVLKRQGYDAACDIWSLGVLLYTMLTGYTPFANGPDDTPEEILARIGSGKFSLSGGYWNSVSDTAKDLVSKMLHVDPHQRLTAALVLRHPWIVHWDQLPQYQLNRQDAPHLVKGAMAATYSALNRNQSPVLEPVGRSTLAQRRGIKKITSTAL
Sequence of UniProt Q04759 (whole entry, looked up): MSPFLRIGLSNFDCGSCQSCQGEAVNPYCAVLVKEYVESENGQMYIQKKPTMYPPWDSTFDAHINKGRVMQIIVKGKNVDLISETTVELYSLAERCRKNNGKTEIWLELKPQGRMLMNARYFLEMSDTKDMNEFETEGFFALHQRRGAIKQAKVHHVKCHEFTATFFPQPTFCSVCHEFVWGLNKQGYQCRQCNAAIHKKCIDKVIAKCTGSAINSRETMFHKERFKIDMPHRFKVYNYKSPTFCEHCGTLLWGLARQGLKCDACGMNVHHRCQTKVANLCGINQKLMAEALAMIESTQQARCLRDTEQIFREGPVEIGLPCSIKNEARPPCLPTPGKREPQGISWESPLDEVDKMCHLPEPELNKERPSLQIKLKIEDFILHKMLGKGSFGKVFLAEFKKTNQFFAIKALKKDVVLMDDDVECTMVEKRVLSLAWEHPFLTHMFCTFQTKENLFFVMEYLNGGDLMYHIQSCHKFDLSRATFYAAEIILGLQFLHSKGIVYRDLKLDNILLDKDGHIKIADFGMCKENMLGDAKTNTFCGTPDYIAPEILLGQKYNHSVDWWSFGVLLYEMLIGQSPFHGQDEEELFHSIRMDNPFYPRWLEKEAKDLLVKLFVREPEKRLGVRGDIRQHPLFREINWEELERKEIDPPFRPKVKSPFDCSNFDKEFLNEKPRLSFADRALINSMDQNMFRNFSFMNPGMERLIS
Sequence of UniProt Q14012 (whole entry, looked up): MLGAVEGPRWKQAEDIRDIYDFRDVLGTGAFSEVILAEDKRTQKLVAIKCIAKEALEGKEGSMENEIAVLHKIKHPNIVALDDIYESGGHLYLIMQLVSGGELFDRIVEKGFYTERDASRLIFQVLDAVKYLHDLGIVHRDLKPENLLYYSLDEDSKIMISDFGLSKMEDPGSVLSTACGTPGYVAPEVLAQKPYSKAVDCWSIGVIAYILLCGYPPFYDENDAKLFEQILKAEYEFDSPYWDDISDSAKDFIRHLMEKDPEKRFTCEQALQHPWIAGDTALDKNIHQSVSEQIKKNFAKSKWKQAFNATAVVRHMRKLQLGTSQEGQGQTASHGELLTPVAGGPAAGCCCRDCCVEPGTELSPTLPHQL
Sequence of UniProt P62344 (whole entry, looked up): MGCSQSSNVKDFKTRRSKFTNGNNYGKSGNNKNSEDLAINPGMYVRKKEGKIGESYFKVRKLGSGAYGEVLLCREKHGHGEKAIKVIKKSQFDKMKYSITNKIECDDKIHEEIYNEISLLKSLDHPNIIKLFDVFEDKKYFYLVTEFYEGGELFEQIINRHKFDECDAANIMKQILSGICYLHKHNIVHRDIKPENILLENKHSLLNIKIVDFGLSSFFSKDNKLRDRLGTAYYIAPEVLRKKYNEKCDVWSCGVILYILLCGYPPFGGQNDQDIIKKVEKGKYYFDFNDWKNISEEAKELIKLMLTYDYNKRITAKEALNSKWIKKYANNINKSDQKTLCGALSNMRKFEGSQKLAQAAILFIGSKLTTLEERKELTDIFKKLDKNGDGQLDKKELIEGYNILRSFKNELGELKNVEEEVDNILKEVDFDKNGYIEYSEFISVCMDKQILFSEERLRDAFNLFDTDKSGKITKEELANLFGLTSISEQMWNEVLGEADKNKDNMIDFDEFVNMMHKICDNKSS
Sequence of UniProt Q13153 (whole entry, looked up): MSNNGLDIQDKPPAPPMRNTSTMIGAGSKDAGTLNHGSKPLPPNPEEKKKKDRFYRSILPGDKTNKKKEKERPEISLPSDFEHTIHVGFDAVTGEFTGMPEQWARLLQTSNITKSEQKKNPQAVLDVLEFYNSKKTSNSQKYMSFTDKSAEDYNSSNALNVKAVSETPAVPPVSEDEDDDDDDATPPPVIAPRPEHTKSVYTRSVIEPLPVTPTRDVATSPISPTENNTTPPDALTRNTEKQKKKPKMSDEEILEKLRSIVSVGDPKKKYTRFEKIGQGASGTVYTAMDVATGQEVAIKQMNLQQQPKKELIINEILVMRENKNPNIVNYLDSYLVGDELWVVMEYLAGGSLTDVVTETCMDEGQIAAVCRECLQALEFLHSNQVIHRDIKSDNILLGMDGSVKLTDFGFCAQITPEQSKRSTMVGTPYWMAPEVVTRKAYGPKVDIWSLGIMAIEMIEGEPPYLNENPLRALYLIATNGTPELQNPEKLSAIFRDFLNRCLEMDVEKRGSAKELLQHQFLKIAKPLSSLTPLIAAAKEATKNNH
Sequence of UniProt P48730 (whole entry, looked up): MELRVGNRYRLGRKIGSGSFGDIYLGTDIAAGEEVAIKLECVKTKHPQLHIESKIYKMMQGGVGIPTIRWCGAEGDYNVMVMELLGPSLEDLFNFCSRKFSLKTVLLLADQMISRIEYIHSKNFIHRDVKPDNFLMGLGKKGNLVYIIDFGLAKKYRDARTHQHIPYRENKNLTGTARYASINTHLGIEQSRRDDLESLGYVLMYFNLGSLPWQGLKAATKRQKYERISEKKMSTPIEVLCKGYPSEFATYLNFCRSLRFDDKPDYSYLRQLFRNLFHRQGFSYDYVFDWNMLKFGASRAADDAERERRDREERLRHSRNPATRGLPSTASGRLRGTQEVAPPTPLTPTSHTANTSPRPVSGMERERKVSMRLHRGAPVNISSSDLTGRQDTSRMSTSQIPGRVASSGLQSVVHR
Sequence of UniProt P28223 (whole entry, looked up): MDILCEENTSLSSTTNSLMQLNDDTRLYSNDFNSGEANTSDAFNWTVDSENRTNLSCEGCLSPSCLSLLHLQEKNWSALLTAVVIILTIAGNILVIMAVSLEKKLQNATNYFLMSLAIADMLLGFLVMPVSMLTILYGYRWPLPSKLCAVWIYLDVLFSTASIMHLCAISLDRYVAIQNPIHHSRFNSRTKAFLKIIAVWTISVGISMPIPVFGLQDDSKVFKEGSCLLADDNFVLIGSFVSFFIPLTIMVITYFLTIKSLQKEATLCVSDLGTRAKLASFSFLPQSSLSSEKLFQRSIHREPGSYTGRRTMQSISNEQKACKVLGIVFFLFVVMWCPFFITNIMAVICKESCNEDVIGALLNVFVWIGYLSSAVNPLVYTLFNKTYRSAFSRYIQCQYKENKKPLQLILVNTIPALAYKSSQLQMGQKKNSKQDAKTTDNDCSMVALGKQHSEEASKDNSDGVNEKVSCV

Series 1
SMILES: CCn1cnc2c(Nc3cccc(Cl)c3)nc(N[C@H]3CCCC[C@H]3N)nc21
Read-out: enzyme activity
Action: inhibitor
Tested at: 0.5 µM
Baseline: control
| target | remaining activity |
| --- | --- |
| Mitogen-activated protein kinase kinase kinase 20 (MAP3K20, Homo sapiens, UniProt Q9NYL2) | 104% |
| Cyclin-dependent kinase 2, with cyclin E (CDK2, Homo sapiens, UniProt P24941) | 16.8% |
| Insulin-like growth factor 1 receptor (IGF1R, Homo sapiens, UniProt P08069) | 51.8% |
| Vascular endothelial growth factor receptor 1 (FLT1, Homo sapiens, UniProt P17948) | 92.8% |
| Tyrosine-protein kinase Tec (TEC, Homo sapiens, UniProt P42680) | 123% |
| Muscle, skeletal receptor tyrosine-protein kinase (MUSK, Homo sapiens, UniProt O15146) | 79.8% |
| Ephrin type-A receptor 2 (EPHA2, Homo sapiens, UniProt P29317) | 86.7% |
| Serine/threonine-protein kinase Sgk2 (SGK2, Homo sapiens, UniProt Q9HBY8) | 98.2% |
| Calcium/calmodulin-dependent protein kinase kinase 1 (CAMKK1, Homo sapiens, UniProt Q8N5S9) | 107% |
| Calcium/calmodulin-dependent protein kinase type 1 (CAMK1, Homo sapiens, UniProt Q14012) | 103% |
| SRSF protein kinase 1 (SRPK1, Homo sapiens, UniProt Q96SB4) | 94.2% |
| Casein kinase I isoform delta (CSNK1D, Homo sapiens, UniProt P48730) | 97.8% |
| Protein kinase C theta type (PRKCQ, Homo sapiens, UniProt Q04759) | 93.3% |
| Casein kinase I isoform epsilon (CSNK1E, Homo sapiens, UniProt P49674) | 92.1% |
| Serine/threonine-protein kinase SIK2 (SIK2, Homo sapiens, UniProt Q9H0K1) | 89.1% |
| Tyrosine-protein kinase receptor TYRO3 (TYRO3, Homo sapiens, UniProt Q06418) | 98.3% |
| Serine/threonine-protein kinase PAK 6 (PAK6, Homo sapiens, UniProt Q9NQU5) | 96.7% |
| Ribosomal protein S6 kinase alpha-3 (RPS6KA3, Homo sapiens, UniProt P51812) | 64.1% |
| Dual specificity protein kinase CLK2 (CLK2, Homo sapiens, UniProt P49760) | 26.6% |
| Serine/threonine-protein kinase PAK 1 (PAK1, Homo sapiens, UniProt Q13153) | 88.8% |
| Protein kinase C zeta type (PRKCZ, Homo sapiens, UniProt Q05513) | 106% |
| Tyrosine-protein kinase JAK1 (JAK1, Homo sapiens, UniProt P23458) | 98.6% |

Series 2
Target: Calcium/calmodulin-dependent protein kinase type II subunit alpha (CAMK2A, Homo sapiens, UniProt Q9UQM7)
Sequence of UniProt Q9UQM7 (whole entry, looked up): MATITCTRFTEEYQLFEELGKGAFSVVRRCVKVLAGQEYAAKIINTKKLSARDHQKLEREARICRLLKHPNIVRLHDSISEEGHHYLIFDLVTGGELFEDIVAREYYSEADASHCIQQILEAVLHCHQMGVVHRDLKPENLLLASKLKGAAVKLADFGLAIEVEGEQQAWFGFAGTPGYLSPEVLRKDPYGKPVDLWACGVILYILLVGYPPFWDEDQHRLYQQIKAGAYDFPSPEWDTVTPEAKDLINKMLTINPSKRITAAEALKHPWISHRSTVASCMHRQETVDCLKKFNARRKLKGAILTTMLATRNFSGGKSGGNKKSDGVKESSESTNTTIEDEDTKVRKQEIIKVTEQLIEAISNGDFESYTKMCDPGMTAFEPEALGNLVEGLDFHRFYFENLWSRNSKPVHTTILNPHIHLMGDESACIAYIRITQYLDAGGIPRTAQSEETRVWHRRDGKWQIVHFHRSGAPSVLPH
Read-out: enzyme activity
Action: inhibitor
Tested at: 10 µM
| Compound | inhibition [%] |
| --- | --- |
| CC(C)C(Br)C(=O)NC(N)=O (centres unmarked) | -2 |
| COC1=CC(=O)OC(/C=C/c2ccccc2)C1 (centres unmarked) | -11 |
| CC1=C(C(=O)Nc2ccccc2)SCCO1 | 2 |
| O=C(/C=C/c1ccccc1)OC[C@H]1O[C@@H](O[C@@H]2OC=C[C@H]3[C@H](O)[C@@H]4O[C@]4(CO)[C@@H]23)[C@H](O)[C@@H](O)[C@@H]1O | -34 |

Series 3
Organism: Sarcocystis neurona
Read-out: parasite growth
Tested at: 10 µM
Time: 96 h
Notes: second screen
Baseline: untreated
| Compound | log2 fold change |
| --- | --- |
| NC(=O)C[S+]([O-])C(c1ccccc1)c1ccccc1 (centres unmarked) | 0.15 |
| C[C@]12C/C(=C/O)C(=O)C[C@@H]1CC[C@@H]1[C@@H]2CC[C@@]2(C)[C@H]1CC[C@]2(C)O | 0.27 |
| CNC1CC(c2ccc(Cl)c(Cl)c2)c2ccccc21 (centres unmarked) | 0.14 |
| COc1ccc(C(CN(C)C)C2(O)CCCCC2)cc1 (centres unmarked) | 0.32 |
| Cc1nnc2n1-c1ccc(Cl)cc1C(c1ccccc1)=NC2 | 0.14 |
| CN1C(=O)CN=C(c2ccccc2)c2cc([N+](=O)[O-])ccc21 | 0.21 |
| CNCC(O)c1ccc(O)cc1 (centres unmarked) | 0.23 |

Series 4
Cell line: A-375
Tested at: 100 µM
Time: 36 h
| Compound | viability [%] |
| --- | --- |
| OC(O)C(Cl)(Cl)Cl | 119 |
| NCC(O)c1ccc(O)cc1 (centres unmarked) | 123 |
| CCC1=C[C@@H]2CN3CCc4c([nH]c5ccccc45)[C@@](C(=O)OC)(C2)[C@@H]13 | 96.8 |
| Nc1nc(N)nc(NC2CC2)n1 | 103 |

Mixed results
pknB: Serine/threonine-protein kinase PknB (pknB, Mycobacterium tuberculosis, UniProt P9WI81)
Sequence of UniProt P9WI81 (whole entry, looked up): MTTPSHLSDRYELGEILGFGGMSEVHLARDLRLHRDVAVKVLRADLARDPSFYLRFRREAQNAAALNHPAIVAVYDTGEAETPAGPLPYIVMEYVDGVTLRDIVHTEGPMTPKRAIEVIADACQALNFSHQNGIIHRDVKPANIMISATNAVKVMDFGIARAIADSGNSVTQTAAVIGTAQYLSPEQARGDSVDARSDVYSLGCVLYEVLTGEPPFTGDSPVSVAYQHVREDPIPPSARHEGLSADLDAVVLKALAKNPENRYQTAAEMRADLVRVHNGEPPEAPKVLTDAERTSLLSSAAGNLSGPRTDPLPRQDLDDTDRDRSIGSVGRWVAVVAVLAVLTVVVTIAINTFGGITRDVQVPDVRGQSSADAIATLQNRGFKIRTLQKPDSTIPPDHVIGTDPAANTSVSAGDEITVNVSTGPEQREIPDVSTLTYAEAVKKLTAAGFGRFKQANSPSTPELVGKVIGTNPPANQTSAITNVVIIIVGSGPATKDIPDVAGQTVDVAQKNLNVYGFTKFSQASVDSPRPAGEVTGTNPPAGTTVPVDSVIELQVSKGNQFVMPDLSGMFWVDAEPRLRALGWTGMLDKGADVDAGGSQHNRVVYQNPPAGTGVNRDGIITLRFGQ
| SMILES | target or system | assay | conditions | scale | endpoint | value |
| --- | --- | --- | --- | --- | --- | --- |
| CN(C)[C@@H]1CCN(c2cc(-c3ccccc3)nc3ccnn23)C1 | 5-hydroxytryptamine receptor 2A (HTR2A, Homo sapiens, UniProt P28223) | cell-free assay | 10 µM | – | inhibition | 16.3% |
| CN[C@@H]1C[C@H]2O[C@@](C)([C@@H]1OC)n1c3ccccc3c3c4c(c5c6ccccc6n2c5c31)C(=O)NC4 | human CD34+ HSPC | EdU flow cytometry | 100 nM, 24 h | – | G0-G1 phase cells | 31.9% and 26.6% |
| CCc1ccccc1C(=O)Nc1n[nH]c2c(C)c(F)c(C3C(C#N)=C(C)N(C)C(C)=C3C#N)cc12 | pknB | cell-free assay, competition with immobilised ligand | 1 µM | – | remaining binding | 85% |
| COc1cccc(C2(O)CCCCC2CN(C)C)c1 (centres unmarked) | mouse MPNST tumor cells | high-content nuclear imaging, refers to: cell number | 10 µM, 12 h, mean of 2 replicates | baseline: plate mean, higher = more cells | nuclei count | 0.703 z-score |
| N#Cc1ccc(Nc2ccc3[nH]c(=O)[nH]c3c2)c(Cl)c1 | Calcium-dependent protein kinase 1 (CDPK1, Plasmodium falciparum, UniProt P62344) | cell-free assay, competition with immobilised ligand | 1 µM | – | remaining binding | 99% |
| CCc1cccc(CC)c1NC1=NCCN1 | mouse MPNST tumor cells | high-content nuclear imaging, refers to: cell number | 10 µM, 12 h, mean of 2 replicates | baseline: plate mean, higher = more cells | nuclei count | 0.833 z-score |
| CN(C)C(=O)Cn1cc(-c2nc(C3(c4ccc(-c5cnc(N)nc5)cc4)CC3)no2)cn1 | pknB | cell-free assay, competition with immobilised ligand | 1 µM | – | remaining binding | 85% |

Excerpt of the above (series 3):
| Compound | log2 fold change |
| --- | --- |
| Cc1nnc2n1-c1ccc(Cl)cc1C(c1ccccc1)=NC2 | 0.14 |
| CN1C(=O)CN=C(c2ccccc2)c2cc([N+](=O)[O-])ccc21 | 0.21 |
| NC(=O)C[S+]([O-])C(c1ccccc1)c1ccccc1 (centres unmarked) | 0.15 |
| C[C@]12C/C(=C/O)C(=O)C[C@@H]1CC[C@@H]1[C@@H]2CC[C@@]2(C)[C@H]1CC[C@]2(C)O | 0.27 |
